Experimental data collected from several papers.
Numbered parts are unrelated; each lists some results of a single study. Substitutions count along the parent as printed.

Study 1
Target: CCNE2, cyclin fold, Cln2 fusion (human)
Method: yeast growth competition, sequencing
Medium: yeast
Setting: strong parent motif
Baseline: not given
Direction: higher = stronger binding
Measurement: normalised enrichment score
Starting sequence: SCAPER docking peptide (human); SNARRSLNFGGST
SNARRSLNFGGAT [S12A]: 1.78
SNARRSLNFGGSQ [T13Q]: 1.05
SNARRSLNFGQST [G11Q]: 1.37
SNARRSHNFGGST [L7H]: 0.409
SNQRRSLNFGGST [A3Q]: -0.789
SNARRSLNFGGSK [T13K]: 1.49
SNARRSLNFQGST [G10Q]: 0.622
SNARRSLSFGGST [N8S]: 1.49
SNARRNLNFGGST [S6N]: 1.81
SNAIRSLNFGGST [R4I]: 1.19

Study 2
Target: Prothrombin, mature alpha-thrombin (F2, Homo sapiens, UniProt P00734)
Method: aptamer microarray, sandwich
Form: DNA with 2'F-ANA
Medium: in vitro
Tested at: 200 nM
Setting: whole 15-mer aptamer, many near background
Together with: Cy3 exosite-II aptamer, 400 nM
Direction: higher = stronger binding
Measurement: mean fluorescence intensity
Sequence: GGTTGGTGTGGTTGG
2'F-ANA at 2 3 4 5 8 10 11 12 15: 57.8 a.u.
2'F-ANA at 3 9 11 12 13 14: 700 a.u.
2'F-ANA at 3 6 7 8 9 10 13 14: 395 a.u.
2'F-ANA at 1 2 3 8 13 14 15: 72.6 a.u.
2'F-ANA at 1 2 3 4 6 9 15: 138 a.u.
2'F-ANA at 1 3 4 5 7 9: 62.2 a.u.
2'F-ANA at 1 4 7 8 9 15: 171 a.u.
2'F-ANA at 1 2 5 8 9 14 15: 46.4 a.u.
2'F-ANA at 1 2 6 7 9 11 12 14 15: 71.6 a.u.

Study 3
Target: Interferon regulatory factor 7, full length, phosphomimetic (IRF7, Homo sapiens, UniProt Q92985, residues 1-503, S101K/S471D/S472D/S475D/S476D/S477D/S483D/S484D/S487D)
Method: protein-binding microarray
Form: double-stranded DNA, one strand shown
Medium: in vitro
Tested at: 250 nM
Setting: 60-bp whole probe
Together with: salmon DNA 0.4 mg/ml
Baseline: random background probes
Direction: higher = stronger binding
Measurement: log fluorescence
All sequences stand within: GCCTAGCAC … GTCTTGATTCGCTTGACGCTGCTG
Construct (chain): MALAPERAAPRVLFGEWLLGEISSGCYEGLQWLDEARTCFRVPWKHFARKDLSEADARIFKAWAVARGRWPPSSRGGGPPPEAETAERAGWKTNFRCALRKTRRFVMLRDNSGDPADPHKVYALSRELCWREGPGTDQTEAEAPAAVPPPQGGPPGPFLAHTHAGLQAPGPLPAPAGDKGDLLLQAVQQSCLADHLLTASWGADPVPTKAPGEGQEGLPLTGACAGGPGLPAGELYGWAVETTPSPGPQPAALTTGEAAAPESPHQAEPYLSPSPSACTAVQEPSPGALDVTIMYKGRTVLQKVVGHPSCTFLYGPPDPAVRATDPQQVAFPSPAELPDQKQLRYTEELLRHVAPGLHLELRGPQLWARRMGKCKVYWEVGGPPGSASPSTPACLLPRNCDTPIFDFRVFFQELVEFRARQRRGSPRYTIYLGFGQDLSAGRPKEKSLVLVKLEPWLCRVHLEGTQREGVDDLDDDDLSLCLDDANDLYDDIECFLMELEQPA
GACGGAATCGGTCTCGGGACGTGCTAG: 0.374 z-score
GGACTCACCTAGTTTCATTCCGTGCTA: 3.12 z-score
TTAGATTTCGGGAATCGATTAGTGCTA: 1.78 z-score
AATGATTACATATATGTTGGTGTGCTA: 0.0326 z-score
TGAGGTCTCCTTTTCCTTTAGTGCTAG: 1.13 z-score
TGAGGACTGGACTATCGGTTAGTGCTA: -0.497 z-score
GACGGACTGCTTATCCTAACGTGCTAG: -0.0638 z-score
GACGAACTGAGTTTCCAGACGTGCTAG: 0.335 z-score
TTAGGACTGCTTCTCCTCTAGTGCTAG: 0.482 z-score
TTAGGTTTCAGTCTCGATTAGTGCTAG: 3.16 z-score
TCAGTTTCTCCTTTGTAACTGTGCTAG: 3.66 z-score

Mixed results
PhoQ, residues 284 288 289 292 302 303 AGHLVA
fold induction (PhoP, residues 12 14 15 18 19 LYFRQ (Escherichia coli, UniProt P23836); Sort-seq, refers to: YFP reporter; E. coli; PhoQ-PhoP variant library, together with: 10 µM Mg2+; baseline: high Mg2+ state, higher = stronger signaling): 3.32

Excerpt of the above (study 2):
2'F-ANA at 1 2 5 8 9 14 15: 46.4 a.u.
2'F-ANA at 1 2 6 7 9 11 12 14 15: 71.6 a.u.
2'F-ANA at 1 2 3 4 6 9 15: 138 a.u.
2'F-ANA at 3 6 7 8 9 10 13 14: 395 a.u.
